Measured values from different studies.
Values joined by “and” are separate records of one study, mostly repeats; a detail may differ. ± gives the spread as reported.

The tissue uptake of `O=C(O)CCCOc1ccc([18F])cc1-c1cc(-c2ccccc2C(F)(F)F)n(-c2ccccc2)n1` is reported as 1.36 ± 0.04 %ID/g (mice, small intestine; intravenous, 5 min).
The tissue uptake of `CC(C)C[C@H](NC(=O)[C@@H](CCCCNC(=O)[C@@H](Cc1ccccc1)NC(=O)CCCCCCCNC(=O)CN1CCN(CC(=O)O)CCN(CC(=O)O)CCN(CC(=O)O)CC1)NC(=O)[C@H](Cc1ccc(O)cc1)NC(=O)[C@H](CO)NC(=O)[C@H](Cc1c[nH]c2ccccc12)NC(=O)[C@H](Cc1c[nH]cn1)NC(=O)[C@@H]1CCC(=O)N1)C(=O)N[C@@H](CCCNC(=N)N)C(=O)N1CCC[C@H]1C(=O)NCC(N)=O` [indium-111 labelled] is reported as 7.62 ± 0.83 %ID/g (male athymic nude mice, DU-145 prostate cancer xenograft, kidney; intravenous, 0.037 MBq, 1 h).
With `CCCC[C@H](NC(=O)CNC(=O)CNC(=O)[C@H](CCCCNC(=O)[C@H](CC(=O)O)NC(=O)C(C)c1ccc(CC(C)C)cc1)NC(=O)CN1CCN(CC(=O)O)CCN(CC(=O)O)CCN(CC(=O)O)CC1)C(=O)N[C@H]1CC(=O)NCCCC[C@@H](C(N)=O)NC(=O)[C@H](Cc2c[nH]c3ccccc23)NC(=O)[C@H](CCCNC(=N)N)NC(=O)[C@@H](Cc2ccccc2)NC(=O)[C@H](Cc2c[nH]cn2)NC1=O` (stereo partly drawn) [lutetium-177 labelled] the tissue uptake was 0.05 ± 0.03 %ID/g (C57 mice, tumour-bearing, brain; intravenous, 0.037 MBq, 24 h).
With `CN(O)C(=O)CCC(=O)NCCCN(CCCCN(CCCNC(=O)CCC(=O)N(C)O)C(=O)CCC(=O)N(C)O)C(=O)CCC(=O)N(C)O.[89Zr]` the tissue uptake was 0.39 ± 0.33 %ID/g (gamma counting; healthy Balb/c mice, muscle; intravenous, 1 h, 89Zr-labelled complex).
The tissue uptake of `O=C(NCC1OC2CCC=CCCC2O1)c1ccc(COCCOCCOCC[18F])cc1` (stereo not drawn) is reported as 2.5 ± 0.1 %ID/g (healthy female BALB/c nude mice, pancreas; intravenous, 7.4 MBq per mouse, 15 min).
The tissue uptake of `COc1ccc(Nc2nc(Nc3ccc(OCCOCC[18F])cc3)ncc2Br)cc1` is reported as 4.33 ± 0.09 %ID (ICR mice, S180 tumour, intestine; intravenous, 370 kBq, 60 min).
`Cc1nc(N)nc2c1C(=O)N[C@@H](c1ccc(F)cc1-c1cccc(OCC[18F])n1)C2` has a tissue uptake of 15.1 ± 0.14 %ID (ex vivo biodistribution; C57BL/6 mice, liver; intravenous, 1 MBq, 30 min).
The tissue uptake of `N#C[C@@H]1CCCN1C(=O)CNC(=O)c1ccnc2ccc(OCCCN3CCN(C(=O)CCc4ccc5c(c4)CN4CCN6CC(=O)[O][68Ga-]([O]C(=O)C4)([O]5)[O]c4ccc(CCC(=O)N5CCN(CCCOc7ccc8nccc(C(=O)NCC(=O)N9CCC[C@H]9C#N)c8c7)CC5)cc4C6)CC3)cc12` is reported as 1.84 ± 0.48 %ID/g (BALB/c nude mice, U-87 MG xenograft, lung; 2 h).
`COc1ccc(Nc2nc(Nc3ccc(OCCOCCOCC[18F])cc3)ncc2Br)cc1` has a tissue uptake of 2.07 ± 0.1 %ID/g (ICR mice, S180 tumour-bearing, muscle; intravenous, 370 kBq, 30 min).
For `N#C[C@@H]1CCCN1C(=O)CNC(=O)c1ccnc2ccc(OCCCN3CCN(C(=O)CCc4ccc(O)c(CN5CCN6CC(=O)[O][Al-]([18F])([O]C(=O)C5)[O]c5ccc(CCC(=O)N7CCN(CCCOc8ccc9nccc(C(=O)NCC(=O)N%10CCC[C@H]%10C#N)c9c8)CC7)cc5C6)c4)CC3)cc12` (stereo partly drawn), the tissue uptake was 7.11 ± 1.85 %ID/g (BALB/c nude mice, U-87 MG xenograft, blood; 1 h, blocking, with: DOTA-FAPI-04 40 nmol/mouse co-injected).
`O=C([O-])CN1CCN(CC(=O)[O-])CCN(CC(=O)NC[C@H]2CC[C@H](C(=O)N[C@H](Cc3cnc4ccccc4c3)C(=O)NCCCC[C@H](NC(=O)N[C@@H](CCC(=O)O)C(=O)O)C(=O)O)CC2)CCN(CC(=O)[O-])CC1.[64Cu+2]` has a tissue uptake of 2.24 %ID/g (ex vivo gamma counting; 22Rv1 tumour-bearing mice, blood; intravenous, 0.74 MBq, 24 h post-injection).
`Cc1cc(C)n(CCN(CCN)CCCCCCNC(=O)[C@@H](N)Cc2c[nH]cn2)n1.[99Tc+].[C-]#[O+].[C-]#[O+].[C-]#[O+]` has a tissue uptake of 15.5 ± 0.52 %IA/g (BALB/c nude mice, A549 xenograft, kidney; intravenous, 15 min).
The tissue uptake of `CC(=O)N([O-])CCCCCNC(=O)CCC(=O)N([O-])CCCCCNC(=O)CCC(=O)N([O-])CCCCCN.[89Zr+4]` is reported as 0.7 ± 0.82 %ID/g (gamma counting; healthy Balb/c mice, adrenal; intravenous, 4 h, 89Zr-labelled complex).
With `CC[C@H](C)[C@H](NC(=O)C[C@H](NC(=O)CN1CCN2CCN(CC1)CC(=O)[O][Al]([18F])[O]C(=O)C2)C(=O)O)C(=O)N[C@H]1CCc2cccc3c2N(C1=O)[C@H](C(=O)NCc1cn[nH]n1)C3` the tissue uptake was 0.47 ± 0.11 %ID/g (C57BL/6J mice, MC-38 tumour, anti-PD-1 treated, spleen; 0.5 h).
With `CCCC[C@H](NC(=O)CCCCCCCNC(=O)CN1CCN(CC(=O)O)CCN(CC(=O)O)CC1)C(=O)N[C@H]1CC(=O)NCCCC[C@@H](C(N)=O)NC(=O)[C@H](Cc2c[nH]c3ccccc23)NC(=O)[C@H](CCCNC(=N)N)NC(=O)[C@@H](Cc2ccccc2)NC(=O)[C@H](Cc2c[nH]cn2)NC1=O` [fluorine-18 labelled] the tissue uptake was 15.5 ± 1.51 %ID/g (C57 mice B16-F10 melanoma, tumor; intravenous, 0.37 MBq, 0.5 h).
For `CC(C)c1noc(C2CCN(c3ncnc(Nc4ccc(OCC[18F])cc4)c3[N+](=O)[O-])CC2)n1`, the tissue uptake was 1.79 ± 0.17 %ID/g (ex vivo biodistribution after PET; C57BL/J male mice, pancreas; 60 min).
`COc1ccc2c(c1)C(C)(C)C(/C=C/C1=C(Oc3ccc(C(=O)NCCCCOc4cc(CN(Cc5ccccn5)Cc5ccccn5)cc(CN(Cc5ccccn5)Cc5ccccn5)c4)cc3)C(=C/C=C3/N(CCCCS(=O)(=O)[O-])c4ccc(OC)cc4C3(C)C)CCC1)=[N+]2CCCCS(=O)(=O)[O-].O=[N+]([O-])[O-].O=[N+]([O-])[O-].[99Tc+].[C-]#[O+].[C-]#[O+].[C-]#[O+].[Zn+2]` has a tissue uptake of 55.3 %ID/g and 127 %ID/g and 19.6 %ID/g and 49.9 %ID/g (BALB/c mice, S. aureus myositis, gall bladder; 12 h post-injection).
With `CCCC[C@H](NC(=O)COCCOCCNC(=O)CN1CCN(CC(=O)O)CCN(CC(=O)O)CC1)C(=O)N[C@H]1CC(=O)NCCCC[C@@H](C(N)=O)NC(=O)[C@H](Cc2c[nH]c3ccccc23)NC(=O)[C@H](CCCNC(=N)N)NC(=O)[C@@H](Cc2ccccc2)NC(=O)[C@H](Cc2c[nH]cn2)NC1=O` [fluorine-18 labelled] the tissue uptake was 1.12 ± 0.27 %ID/g (C57 mice B16-F10 melanoma, liver; intravenous, 0.37 MBq, 1 h).
With `C[N+](C)(CCOCCOCCOCCOCCOCCOCCOCCNC(=S)Nc1ccc(CC2CN(CC(=O)[O-])CCN(CC(=O)[O-])CCN2CC(=O)[O-])cc1)C[c-]1cccc1.[64Cu+2].[Fe+2].c1cc[cH-]c1` (stereo not drawn) the tissue uptake was 0.2 %ID/g (measured: kidney; nude mice, BxPC-3 tumour; 8 h, pretargeting, 72 h lag).
`O=C(NCC1OC2CCC=CCCC2O1)c1ccc([18F])nc1` (stereo not drawn) gave a tissue uptake of 3 ± 0.5 %ID/g (healthy female BALB/c nude mice, large intestine; intravenous, 7.4 MBq per mouse, 5 min).
The tissue uptake of `N[C@H](CSC(F)(F)[18F])C(=O)O` is reported as 1.44 ± 0.24 %ID/g (Kunming mice, turpentine inflammation, blood; intravenous, 0.74 MBq, 60 min).

A few entries again:
`Cc1nc(N)nc2c1C(=O)N[C@@H](c1ccc(F)cc1-c1cccc(OCC[18F])n1)C2` has a tissue uptake of 15.1 ± 0.14 %ID (ex vivo biodistribution; C57BL/6 mice, liver; intravenous, 1 MBq, 30 min).
The tissue uptake of `O=C(O)CCCOc1ccc([18F])cc1-c1cc(-c2ccccc2C(F)(F)F)n(-c2ccccc2)n1` is reported as 1.36 ± 0.04 %ID/g (mice, small intestine; intravenous, 5 min).
`O=C(NCC1OC2CCC=CCCC2O1)c1ccc([18F])nc1` (stereo not drawn) gave a tissue uptake of 3 ± 0.5 %ID/g (healthy female BALB/c nude mice, large intestine; intravenous, 7.4 MBq per mouse, 5 min).
